Measurements gathered from unrelated publications.
Each numbered part is a random draw from the data of one study; scales do not carry over between parts. ± gives the spread as reported.
Sequence of UniProt Q5XXA6 (whole entry, unmodified, looked up): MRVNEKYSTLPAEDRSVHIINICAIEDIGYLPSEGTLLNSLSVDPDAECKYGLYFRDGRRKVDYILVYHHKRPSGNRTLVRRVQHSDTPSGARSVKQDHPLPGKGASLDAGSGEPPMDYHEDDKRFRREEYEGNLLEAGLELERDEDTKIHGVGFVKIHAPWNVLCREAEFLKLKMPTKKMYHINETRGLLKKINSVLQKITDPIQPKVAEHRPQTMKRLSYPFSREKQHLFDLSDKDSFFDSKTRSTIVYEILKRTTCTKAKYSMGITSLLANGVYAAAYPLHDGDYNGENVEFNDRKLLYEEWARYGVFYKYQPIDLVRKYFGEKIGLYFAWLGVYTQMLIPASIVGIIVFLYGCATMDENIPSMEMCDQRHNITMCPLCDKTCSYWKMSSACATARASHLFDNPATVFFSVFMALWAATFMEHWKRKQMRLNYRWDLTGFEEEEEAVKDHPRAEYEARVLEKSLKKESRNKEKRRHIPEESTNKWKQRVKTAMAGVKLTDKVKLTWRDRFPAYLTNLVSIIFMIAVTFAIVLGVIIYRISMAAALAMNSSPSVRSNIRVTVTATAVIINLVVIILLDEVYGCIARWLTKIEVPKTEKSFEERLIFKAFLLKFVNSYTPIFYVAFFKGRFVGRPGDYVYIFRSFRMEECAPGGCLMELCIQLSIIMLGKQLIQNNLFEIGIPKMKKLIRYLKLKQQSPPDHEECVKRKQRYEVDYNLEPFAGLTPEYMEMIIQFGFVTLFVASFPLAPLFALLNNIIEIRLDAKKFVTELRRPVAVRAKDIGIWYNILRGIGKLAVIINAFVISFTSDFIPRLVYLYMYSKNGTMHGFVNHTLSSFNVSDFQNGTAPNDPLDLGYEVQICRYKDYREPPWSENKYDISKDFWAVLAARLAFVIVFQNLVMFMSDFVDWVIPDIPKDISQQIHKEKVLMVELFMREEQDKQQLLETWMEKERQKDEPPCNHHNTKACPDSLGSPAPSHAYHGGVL
Sequence of UniProt P31152 (whole entry, looked up): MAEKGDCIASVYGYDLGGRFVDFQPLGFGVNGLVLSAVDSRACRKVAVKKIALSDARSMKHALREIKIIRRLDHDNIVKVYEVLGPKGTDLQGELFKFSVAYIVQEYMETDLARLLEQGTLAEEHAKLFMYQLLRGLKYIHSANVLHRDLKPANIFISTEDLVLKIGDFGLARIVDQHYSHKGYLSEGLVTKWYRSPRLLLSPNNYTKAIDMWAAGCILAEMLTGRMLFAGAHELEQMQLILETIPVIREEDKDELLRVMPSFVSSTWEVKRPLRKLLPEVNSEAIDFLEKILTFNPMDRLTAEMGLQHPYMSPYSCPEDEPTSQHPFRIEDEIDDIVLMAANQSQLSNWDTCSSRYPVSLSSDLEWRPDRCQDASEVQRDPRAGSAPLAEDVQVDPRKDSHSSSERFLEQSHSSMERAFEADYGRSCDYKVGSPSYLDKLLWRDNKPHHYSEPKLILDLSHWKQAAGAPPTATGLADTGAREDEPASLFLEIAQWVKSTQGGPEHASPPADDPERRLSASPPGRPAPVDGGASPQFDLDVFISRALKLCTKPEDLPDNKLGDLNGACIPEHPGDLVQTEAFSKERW
Sequence of UniProt P43403 (whole entry, looked up): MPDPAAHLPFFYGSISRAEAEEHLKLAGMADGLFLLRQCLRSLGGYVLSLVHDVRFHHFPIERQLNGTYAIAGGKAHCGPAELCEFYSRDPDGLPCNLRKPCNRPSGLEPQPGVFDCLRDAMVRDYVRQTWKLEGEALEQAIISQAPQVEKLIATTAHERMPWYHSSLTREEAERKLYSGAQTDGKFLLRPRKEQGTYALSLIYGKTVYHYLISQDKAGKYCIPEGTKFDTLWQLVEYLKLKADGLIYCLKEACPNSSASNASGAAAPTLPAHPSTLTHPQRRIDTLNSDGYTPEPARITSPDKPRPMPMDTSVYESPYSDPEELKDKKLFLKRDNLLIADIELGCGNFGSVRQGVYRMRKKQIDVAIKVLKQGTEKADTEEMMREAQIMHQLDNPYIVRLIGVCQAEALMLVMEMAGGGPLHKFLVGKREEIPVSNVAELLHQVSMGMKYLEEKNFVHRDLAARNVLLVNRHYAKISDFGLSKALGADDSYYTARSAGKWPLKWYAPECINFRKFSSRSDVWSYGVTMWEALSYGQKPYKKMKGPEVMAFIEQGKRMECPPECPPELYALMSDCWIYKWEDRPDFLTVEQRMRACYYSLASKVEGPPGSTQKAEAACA
Sequence of UniProt P49674 (whole entry, looked up): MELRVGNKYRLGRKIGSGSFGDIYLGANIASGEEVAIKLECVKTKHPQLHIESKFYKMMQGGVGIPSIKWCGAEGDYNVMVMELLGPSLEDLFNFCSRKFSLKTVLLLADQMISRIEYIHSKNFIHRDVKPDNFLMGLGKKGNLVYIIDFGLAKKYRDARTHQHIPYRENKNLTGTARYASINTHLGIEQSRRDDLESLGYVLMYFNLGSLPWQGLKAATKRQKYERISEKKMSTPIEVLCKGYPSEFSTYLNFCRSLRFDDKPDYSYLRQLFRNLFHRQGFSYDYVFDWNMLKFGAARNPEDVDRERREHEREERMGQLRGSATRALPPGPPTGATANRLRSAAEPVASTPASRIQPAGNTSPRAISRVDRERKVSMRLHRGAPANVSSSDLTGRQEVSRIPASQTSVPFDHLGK
Sequence of UniProt Q9BRS2 (whole entry, looked up): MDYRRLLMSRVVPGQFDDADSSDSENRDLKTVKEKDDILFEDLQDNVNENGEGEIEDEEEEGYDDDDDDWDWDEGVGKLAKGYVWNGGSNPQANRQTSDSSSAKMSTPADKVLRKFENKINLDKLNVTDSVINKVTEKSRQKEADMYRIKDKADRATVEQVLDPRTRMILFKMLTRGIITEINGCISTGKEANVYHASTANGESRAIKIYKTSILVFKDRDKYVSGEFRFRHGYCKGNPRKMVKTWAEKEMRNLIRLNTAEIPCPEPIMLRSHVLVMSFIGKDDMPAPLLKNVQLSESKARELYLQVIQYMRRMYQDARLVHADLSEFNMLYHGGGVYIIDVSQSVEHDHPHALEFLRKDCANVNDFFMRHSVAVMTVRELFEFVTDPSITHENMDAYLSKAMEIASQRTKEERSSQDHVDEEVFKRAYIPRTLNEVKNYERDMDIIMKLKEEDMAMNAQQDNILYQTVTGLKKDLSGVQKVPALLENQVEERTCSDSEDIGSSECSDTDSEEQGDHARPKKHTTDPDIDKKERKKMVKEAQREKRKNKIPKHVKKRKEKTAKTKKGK
Sequence of UniProt Q00526 (whole entry, looked up): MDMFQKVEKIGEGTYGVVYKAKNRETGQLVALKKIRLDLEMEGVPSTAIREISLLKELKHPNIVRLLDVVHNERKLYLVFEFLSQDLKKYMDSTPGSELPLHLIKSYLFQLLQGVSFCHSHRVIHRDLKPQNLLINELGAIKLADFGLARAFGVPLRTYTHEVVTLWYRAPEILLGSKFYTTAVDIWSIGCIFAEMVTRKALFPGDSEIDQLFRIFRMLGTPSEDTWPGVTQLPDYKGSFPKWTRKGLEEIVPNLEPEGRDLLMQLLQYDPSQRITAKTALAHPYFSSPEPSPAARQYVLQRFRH

Series 1
SMILES: C=CCc1ccc(O)c(-c2ccc(O)c(CC=C)c2)c1
Observed: chloride current
Method: whole-cell voltage clamp
| target | action | tested at | setting | with | IC50 [µM] |
| --- | --- | --- | --- | --- | --- |
| Anoctamin-1 (ANO1, Homo sapiens, UniProt Q5XXA6, del476-501/R561A) |  |  | membrane voltage 40 mV |  | 6.41 |
| Anoctamin-1 (ANO1, Homo sapiens, UniProt Q5XXA6, del476-501/F628W) | inhibitor | 100 mV holding voltage |  |  | 15.1 |
| Anoctamin-1 (ANO1, Homo sapiens, UniProt Q5XXA6, del476-501/F628Y) | inhibitor | 100 mV holding voltage |  |  | 22.6 |
| Anoctamin-1 (ANO1, Homo sapiens, UniProt Q5XXA6, del476-501/E650A) | inhibitor |  | pore pocket mutant E624A at 100 mV | 300 nM Ca2+ | 4.39 |
| Anoctamin-1 (ANO1, Homo sapiens, UniProt Q5XXA6, del476-501/F627A) |  |  | membrane voltage -100 mV |  | 5.94 |
| Anoctamin-1 (ANO1, Homo sapiens, UniProt Q5XXA6, del476-501/F807A) |  |  | membrane voltage 20 mV |  | 21.5 |
| Anoctamin-1 (ANO1, Homo sapiens, UniProt Q5XXA6, del476-501/M544A) |  |  | membrane voltage -20 mV |  | 3.43 |
| Anoctamin-1 (ANO1, Homo sapiens, UniProt Q5XXA6, del476-501/F628I) | inhibitor |  | F602I mutant at 60 mV |  | 9 |
| Anoctamin-1 (ANO1, Homo sapiens, UniProt Q5XXA6, del476-501/L548A) |  |  | membrane voltage 20 mV |  | 5.6 |

Series 2
Target: Calcium/calmodulin-dependent protein kinase type II subunit alpha (CAMK2A, Homo sapiens, UniProt Q9UQM7)
Sequence of UniProt Q9UQM7 (whole entry, looked up): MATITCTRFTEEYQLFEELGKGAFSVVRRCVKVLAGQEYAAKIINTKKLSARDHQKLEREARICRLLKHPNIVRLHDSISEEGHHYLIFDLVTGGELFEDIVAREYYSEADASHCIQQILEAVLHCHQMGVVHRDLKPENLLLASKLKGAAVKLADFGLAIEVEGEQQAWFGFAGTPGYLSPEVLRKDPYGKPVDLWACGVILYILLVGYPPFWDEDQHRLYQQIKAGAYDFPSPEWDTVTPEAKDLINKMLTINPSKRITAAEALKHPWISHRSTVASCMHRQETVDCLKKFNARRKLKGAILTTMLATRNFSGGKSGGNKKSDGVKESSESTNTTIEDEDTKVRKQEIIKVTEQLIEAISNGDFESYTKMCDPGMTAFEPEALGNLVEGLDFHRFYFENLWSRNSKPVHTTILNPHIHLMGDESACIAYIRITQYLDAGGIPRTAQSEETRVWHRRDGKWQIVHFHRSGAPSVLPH
Observed: enzyme activity
Action: inhibitor
Tested at: 10 µM
| SMILES | inhibition [%] |
| --- | --- |
| C[C@]1(OC(=O)/C=C/c2ccccc2)C[C@@H](O)[C@]2(O)C=CO[C@@H](O[C@@H]3O[C@H](CO)[C@@H](O)[C@H](O)[C@H]3O)[C@@H]21 | -38 |
| Oc1cc(O)c2cc(O)c(-c3ccc(O)c(O)c3)[o+]c2c1 | -49 |
| CC[C@@H]1/C=C(\C)C[C@H](C)C[C@H](OC)[C@H]2O[C@@](O)(C(=O)C(=O)N3CCCC[C@H]3C(=O)O[C@H](/C(C)=C/[C@@H]3CC[C@@H](O)[C@H](OC)C3)[C@H](C)[C@@H](O)CC1=O)[C@H](C)C[C@@H]2OC | 5 |
| CO[C@H]1/C=C/O[C@@]2(C)Oc3c(C)c(O)c4c(O)c(c(/C=N/N5CCN(C6CCCC6)CC5)c(O)c4c3C2=O)NC(=O)/C(C)=C\C=C\[C@H](C)[C@H](O)[C@@H](C)[C@@H](O)[C@@H](C)[C@H](OC(C)=O)[C@@H]1C | -10 |
| Cn1c(=O)c(Oc2ccc(F)cc2F)cc2cnc(NC(CCO)CCO)nc21 | -4 |
| CC(C)(O)[C@@H]1CC[C@](C)([C@H]2[C@@H](O)C[C@@]3(C)[C@@H]4C[C@H](O[C@@H]5O[C@H](CO)[C@@H](O)[C@H](O)[C@H]5O)[C@H]5C(C)(C)[C@@H](O[C@@H]6OC[C@@H](O)[C@H](O)[C@H]6O[C@@H]6O[C@H](CO)[C@@H](O)[C@H](O)[C@H]6O)CC[C@@]56C[C@@]46CC[C@]23C)O1 | 10 |
| C[C@@H]1O[C@@H](O[C@H]2[C@H](O[C@H]3CC[C@@]4(C)[C@@H](CC[C@]5(C)[C@@H]4CC=C4[C@@H]6CC(C)(C)CC[C@]6(C(=O)O[C@@H]6O[C@H](CO[C@@H]7O[C@H](CO)[C@@H](O)[C@H](O)[C@H]7O)[C@@H](O)[C@H](O)[C@H]6O)CC[C@]45C)[C@]3(C)CO)OC[C@H](O)[C@@H]2O)[C@H](O)[C@H](O[C@@H]2O[C@H](CO)[C@@H](O)[C@H](O)[C@H]2O)[C@H]1O | 5 |
| CC(C)=CCc1c(O)ccc2ccc(=O)oc12 | -11 |
| CO[C@@H]1[C@H](O)[C@@H](CO)O[C@H]1n1ccc(=O)[nH]c1=O | 24 |
| COc1cc2ncnc(Nc3ccc(F)c(Cl)c3)c2cc1NC(=O)/C=C/CN1CCCCC1 | -5 |
| CO/N=C(\C(=O)N[C@@H]1C(=O)N2C(C(=O)O)=CCS[C@H]12)c1csc(N)n1 | 11 |
| C=CCCCCCCCCC(=O)O | 2 |

Series 3
Structure (SMILES): CCCCN(CCCC)C(=O)CN1C[C@@H](c2cc(OC)c3c(c2)OCO3)[C@H](C(=O)O)[C@H]1CC(C)(C)CCC
Observed: cell-free assay
Method: competition with immobilised ligand
Tested at: 1 µM
| target | remaining binding |
| --- | --- |
| RIOK1 (Homo sapiens, UniProt Q9BRS2) | 100% |
| CDC42BPA (Homo sapiens, UniProt Q5VT25) | 96.6% |
| SIK2 (Homo sapiens, UniProt Q9H0K1) | 100% |
| STK36 (Homo sapiens, UniProt Q9NRP7) | 75% |
| HCK (Homo sapiens, UniProt P08631) | 82.8% |
| PRKCI (Homo sapiens, UniProt P41743) | 100% |
| SRPK2 (Homo sapiens, UniProt P78362) | 100% |
| ZAP70 (Homo sapiens, UniProt P43403) | 98.5% |
| PIK3CG (Homo sapiens, UniProt P48736) | 90.8% |
| MAPK4 (Homo sapiens, UniProt P31152) | 100% |
| CDK3 (Homo sapiens, UniProt Q00526) | 88.1% |
| PIK3CA (Homo sapiens, UniProt P42336, E545K) | 91% |
| MKNK1 (Homo sapiens, UniProt Q9BUB5) | 100% |
| CSNK1E (Homo sapiens, UniProt P49674) | 100% |
| MKNK2 (Homo sapiens, UniProt Q9HBH9) | 96.5% |
| AKT2 (Homo sapiens, UniProt P31751) | 100% |
| FLT3 (Homo sapiens, UniProt P36888, ITD) | 100% |
| MET (Homo sapiens, UniProt P08581, M1250T) | 100% |
| WNK4 (Homo sapiens, UniProt Q96J92) | 100% |
| TBK1 (Homo sapiens, UniProt Q9UHD2) | 100% |
| NEK9 (Homo sapiens, UniProt Q8TD19) | 84.2% |
| MET (Homo sapiens, UniProt P08581, Y1235D) | 100% |
| EPHB1 (Homo sapiens, UniProt P54762) | 100% |

Series 4
Compound: COc1cc(C(=O)N2CCC(N3CCN(C)CC3)CC2)ccc1Nc1ncc2c(n1)N(C)c1ccccc1C(=O)N2C
Observed: kinase activity
| target | tested at | remaining activity |
| --- | --- | --- |
| PAK2 | 1 µM | 97 ± 1% |
| MAPKAP-K3 | 1 µM | 85 ± 1% |
| MINK1 | 1 µM | 99 ± 8% |
| VEG-FR | 10 µM | 61 ± 3% |
| GSK3B | 1 µM | 90 ± 1% |
| EF2K | 1 µM | 75 ± 10% |
| CDK2-cyclin A | 10 µM | 79 ± 2% |
| MELK | 10 µM | 92 ± 11% |
| DYRK1A | 1 µM | 87 ± 1% |
| IRR | 10 µM | 91 ± 6% |

A few entries again (series 2):
| SMILES | inhibition [%] |
| --- | --- |
| CC(C)=CCc1c(O)ccc2ccc(=O)oc12 | -11 |
| Oc1cc(O)c2cc(O)c(-c3ccc(O)c(O)c3)[o+]c2c1 | -49 |
| C[C@@H]1O[C@@H](O[C@H]2[C@H](O[C@H]3CC[C@@]4(C)[C@@H](CC[C@]5(C)[C@@H]4CC=C4[C@@H]6CC(C)(C)CC[C@]6(C(=O)O[C@@H]6O[C@H](CO[C@@H]7O[C@H](CO)[C@@H](O)[C@H](O)[C@H]7O)[C@@H](O)[C@H](O)[C@H]6O)CC[C@]45C)[C@]3(C)CO)OC[C@H](O)[C@@H]2O)[C@H](O)[C@H](O[C@@H]2O[C@H](CO)[C@@H](O)[C@H](O)[C@H]2O)[C@H]1O | 5 |
| CO[C@@H]1[C@H](O)[C@@H](CO)O[C@H]1n1ccc(=O)[nH]c1=O | 24 |
| C=CCCCCCCCCC(=O)O | 2 |
